Measured values gathered from unrelated publications.
Lines come from different studies, so protocols differ. ± gives the spread as reported.

For `CC(C)C[C@@H]1NC(=O)[C@H](CC(C)C)NC(=O)[C@H](Cc2c[nH]c3ccccc23)NC(=O)[C@H](CO)NC(=O)[C@H](Cc2c[nH]c3ccccc23)NC(=O)[C@@H]2CCCN2C(=O)[C@H](CC(C)C)NC(=O)[C@H](Cc2c[nH]cn2)NC(=O)[C@@H]2CCCN2C(=O)[C@H](CC(N)=O)NC(=O)[C@H](C)NC(=O)[C@H](Cc2ccc(O)cc2)NC(=O)[C@H](CS)NC(=O)[C@H](CCCCNC(=O)CN2CCN(CC(=O)O)CCN(CC(=O)O)CCN(CC(=O)O)CC2)NC1=O` [lutetium-177 labelled], the tissue uptake was 2.17 %ID (Balb/c mouse, female, 4T1 tumour, kidney; intravenous, 3.7 MBq, 24 h).
The fraction unbound of `CCCCCCCCCC(=O)N[C@@H](Cc1c[nH]c2ccccc12)C(=O)N[C@H](CC(N)=O)C(=O)N[C@@H](CC(=O)O)C(=O)N[C@@H]1C(=O)NCC(=O)N[C@@H](CCCNC(=O)CCC(=O)N2Cc3ccccc3-c3c(nnn3CCC[C@H](NC(=O)CCCCC[N+]3=C(C=CC4=CC(=CC=C5N(C)c6ccccc6C5(C)C)CCC4)C(C)(C)c4ccccc43)C(=O)NCCCCNC(=O)OC(C)(C)C)-c3ccccc32)C(=O)N[C@@H](CC(=O)O)C(=O)N[C@H](C)C(=O)N[C@@H](CC(=O)O)C(=O)NCC(=O)N[C@H](CO)C(=O)N[C@@H]([C@H](C)CC(=O)O)C(=O)N[C@@H](CC(=O)c2ccccc2N)C(=O)O[C@@H]1C` is reported as 0.084 (rapid equilibrium dialysis; human plasma; 1 µM, 2 h, 37 °C).
The uptake of `C[C@@H](O)[C@H](NC(=O)[C@@H]1CSSC[C@H](NC(=O)[C@@H](Cc2ccccc2)NC(=O)CN2CCN(CC(=O)[O-])CCN(CC(=O)[O-])CCN(CC(=O)[O-])CC2)C(=O)N[C@@H](Cc2ccc(O)cc2)C(=O)N[C@H](Cc2c[nH]c3ccccc23)C(=O)N[C@@H](CCCCN)C(=O)N[C@@H]([C@@H](C)O)C(=O)N1)C(=O)O.[177Lu+3]` is reported as 0.713% (MEC1 treated with 200 µM zebularine; gamma counter; serum-free RPMI; 60 min, 37 °C).
For `Cc1ccccc1NC(=O)Nc1ccc(CC(=O)N[C@@H](CCCCNC(=O)/C=C/c2cccnc2)C(=O)N[C@@H](CCCC(=O)O)C(=O)NC2(C(=O)NCCOCCOCCOCCOCC(=O)N[C@@H](CCCCNC(=S)Nc3ccc(CCCN(CCN4CCN(CP(=O)(O)O)CCN(CP(=O)(O)O)CC4)CC(=O)O)cc3)C(N)=O)CCCCC2)cc1` [gallium-68 labelled], the free gallium-68 was 1.1% (radio-HPLC; C57BL/6 mice, blood; 30 min post-injection).
With `O=C(O)C[C@H](NC(=O)[C@H](CC(=O)O)NC(=O)[C@H](CC(=O)O)NC(=O)[C@H](CC(=O)O)NC(=O)[C@H](CC(=O)O)NC(=O)[C@H](CC(=O)O)NC(=O)[C@H](CC(=O)O)NC(=O)[C@H](CC(=O)O)NC(=O)[C@H](CC(=O)O)NC(=O)[C@H](CC(=O)O)NC(=O)[C@H](CC(=O)O)NC(=O)[C@H](CCCCNC(=O)c1ccc(C(=O)NCCOCCOB2BBBBBB3BBBB3B2)cc1)NC(=O)CN1CCN(CC(=O)O)CCN(CC(=O)O)CCN(CC(=O)O)CC1)C(=O)O` [gallium-67 labelled] the tissue uptake was 0.37 %ID/g (ddY male mice, liver; intravenous, 37 kBq, 1 h).
`CC(C)C[C@H](NC(=O)[C@H](C)NC(=O)[C@@H](NC(=O)[C@H](C)NC(=O)[C@H](CC(C)C)NC(=O)[C@H](CC(=O)O)NC(=O)[C@@H]1CCCN1C(=O)[C@@H]1CCCN1C(=O)[C@H](CC(=O)O)NC(=O)[C@H](Cc1ccccc1)NC(=O)[C@H](Cc1c[nH]c2ccccc12)NC(=O)[C@H](CC(C)C)NC(=O)[C@H](C)NC(=O)[C@@H](NC(=O)[C@H](C)NC(=O)[C@H](CC(C)C)NC(=O)[C@H](CC(=O)O)NC(=O)COCC(=O)NCCCOCCOCCOCCCNC(=O)COCC(=O)NCCCOCCOCCOCCCNC(=O)CCC(C(=O)O)N1CCN(CC(=O)O)CCN(CC(=O)O)CC1)C(C)C)C(C)C)C(=O)N[C@@H](Cc1c[nH]c2ccccc12)C(=O)N[C@@H](Cc1ccccc1)C(=O)N[C@@H](CC(=O)O)C(N)=O` (some centres unmarked) [gallium-68 labelled]: “intact parent in plasma” 50 ± 8% (radio-HPLC; healthy C57BL/6 mice, plasma; intravenous, 4 MBq, 30 min, ex vivo analysis).
The tissue uptake of `C[C@@H](O)[C@@H](CO)NC(=O)[C@@H](CCCNC(=N)N)NC(=O)[C@@H]1CCCN1C(=O)[C@@H]1CSSC[C@H](NC(=O)[C@H](Cc2ccccc2)NC(=O)CN2CCN(CC(=O)O)CCN(CC(=O)O)CCN(CC(=O)O)CC2)C(=O)N[C@@H](Cc2ccc(O)cc2)C(=O)N[C@@H](Cc2ccccc2)C(=O)N[C@@H](CCC(N)=O)C(=O)N[C@@H](CC(N)=O)C(=O)N1` [gallium-68 labelled] is reported as 0.13 %ID/g (Wistar rat, blood; intravenous, 8 MBq, 120 min, group mean).
The tissue uptake of `CC[C@H](C)[C@H](NC(=O)[C@H](Cc1ccccc1)NC(=O)[C@H](CCC(=O)O)NC(=O)[C@H](CCCNC(=N)N)NC(=O)[C@H](C)NC(=O)[C@H](C)NC(=O)[C@H](CCC(N)=O)NC(=O)[C@H](CCC(=O)O)NC(=O)[C@H](CCC(=O)O)NC(=O)[C@H](CC(C)C)NC(=O)[C@H](Cc1ccc(O)cc1)NC(=O)[C@H](CO)NC(=O)[C@H](CO)NC(=O)[C@@H](NC(=O)[C@H](CC(=O)O)NC(=O)[C@H](CO)NC(=O)[C@@H](NC(=O)[C@H](Cc1ccccc1)NC(=O)[C@@H](NC(=O)CNC(=O)[C@H](CCC(=O)O)NC(=O)[C@H](C)NC(=O)CCc1c[nH]cn1)[C@@H](C)O)[C@@H](C)O)C(C)C)C(=O)N[C@@H](C)C(=O)N[C@@H](Cc1c[nH]c2ccccc12)C(=O)N[C@@H](CC(C)C)C(=O)N[C@H](C(=O)N[C@@H](CCCNC(=N)N)C(=O)NCC(=O)N[C@@H](CCCNC(=N)N)C(=O)N[C@@H](CCCCNC(=O)COCCOCCNC(=O)COCCOCCNC(=O)CC[C@H](NC(=O)CCCCCCCCCCCCCCCCC(=O)O)C(=O)O)C(=O)NCC(=O)NCC(=O)N[C@@H](CO)C(=O)N[C@@H](CCCCNc1c(NCCCCCN(O)C(=O)CCC(=O)NCCCCCN(O)C(=O)CCC(=O)NCCCCCN(O)C(C)=O)c(=O)c1=O)C(=O)O)C(C)C` [zirconium-89 labelled] is reported as 0.17 %ID/g (gamma counting; rat, skin of neck; subcutaneous, 3 nmol/kg, 4 h).
